Measurements from different studies.
Protocols differ between the studies behind these lines. ± marks the error that the study gave.

CCCC[C@H](NC(=O)CN1CCC(NC(=O)CN2CCN(CC(=O)O)CCN(CC(=O)O)CCN(CC(=O)O)CC2)CC1)C(=O)N[C@H]1CC(=O)NCCCC[C@@H](C(N)=O)NC(=O)[C@H](Cc2c[nH]c3ccccc23)NC(=O)[C@H](CCCNC(=N)N)NC(=O)[C@@H](Cc2ccccc2)NC(=O)[C@H](Cc2c[nH]cn2)NC1=O [gallium-68 labelled]
tissue uptake (C57BL/6J mice male B16-F10 tumour, lungs; 1 h post injection, unblocked): 0.6 ± 0.2 %ID/g

CC(F)C(=O)NC[C@@H]1O[C@H](C(=O)NCCCC[C@@H]2NC(=O)[C@@H](Cc3ccccc3)NC(=O)[C@H](CC(=O)O)NC(=O)CNC(=O)[C@H](CCCNC(=N)N)NC2=O)[C@H](O)[C@H](O)[C@H]1O (stereo partly shown) [fluorine-18 labelled]
tissue uptake (small-animal PET; female athymic nude mice, U-87 MG xenograft, liver; intravenous, 3.7 MBq, 120 min): 0.1 ± 0.01 %ID/g

N=C(N)NCCC[C@H](NC(=O)CON=C[C@H](F)[C@@H](O)[C@H](O)[C@H](O)CO)C(=O)NCC(=O)N[C@@H](CC(=O)O)C(=O)O [fluorine-18 labelled]
tissue uptake (nude mice U-87 MG tumour, intestine; intravenous, 2 h): 0.19 ± 0.09 %ID/g

N=C(N)NCCC[C@H](NC(=O)[C@@H]1CSSC[C@H](NC(=O)[C@H](Cc2ccc3ccccc3c2)NC(=O)[C@H](CCCNC(=N)N)NC(=O)[C@H](CCCNC(=N)N)NC(=S)Nc2ccc(C[C@H]3CN(CC(=O)O)CCN(CC(=O)O)CCN3CC(=O)O)cc2)C(=O)N[C@@H](Cc2ccc(O)cc2)C(=O)N[C@@H](CCCNC(N)=O)C(=O)N[C@@H](CCCCN)C(=O)N[C@H](CCCCN)C(=O)N2CCC[C@H]2C(=O)N[C@@H](Cc2ccc(O)cc2)C(=O)N[C@@H](CCCNC(=N)N)C(=O)N[C@@H](CCCNC(N)=O)C(=O)N1)C(N)=O [copper-64 labelled]
tissue uptake (female athymic nude mice, CHO-CXCR4 tumour xenograft; intravenous, 50 µCi, 4 h): 4.55 ± 0.66 %ID/g

N=C(N)NCCC[C@@H]1NC(=O)[C@H](CCCCNC(=O)CC[C@H](NC(=O)[C@H]2O[C@@H](CNC(=O)c3ccc(F)cc3)[C@H](O)[C@@H](O)[C@H]2O)C(=O)NCCCC[C@@H]2NC(=O)[C@@H](Cc3ccc(O)cc3)NC(=O)[C@H](CC(=O)O)NC(=O)CNC(=O)[C@H](CCCNC(=N)N)NC2=O)NC(=O)[C@@H](Cc2ccc(O)cc2)NC(=O)[C@H](CC(=O)O)NC(=O)CNC1=O [fluorine-18 labelled]
tissue uptake (small-animal PET; female athymic nude mice, U-87 MG xenograft, liver; intravenous, 3.7 MBq, 120 min): 0.28 ± 0.1 %ID/g

O=C([O-])CN1CCN(CC(=O)[O-])CC(Cc2ccc(NC(=S)NCCOCCOCCOCCOCCOCCOCCOCCNC(=O)CCCC(=O)NCc3ccc(-c4nncnn4)cc3)cc2)N(CC(=O)[O-])CC1.[64Cu+2] (stereo not shown)
tissue uptake (PET and biodistribution; healthy athymic nude mice, kidney; 4 h): 1.2 ± 0.4 %ID/g

CN1C(=O)[C@@H](Cc2ccc(O)c(I)c2)NC(=O)CNC(=O)[C@H](Cc2ccc3ccccc3c2)NC(=O)[C@H](CCCNC(=N)N)NC(=O)[C@H]1CCCNC(=O)c1ccc(CNC(=O)CN2CCN(CC(=O)O)CCN(CC(=O)O)CCN(CC(=O)O)CC2)cc1 [lutetium-177 labelled]
tissue uptake (refers to: 177Lu radioactivity; female CB-17 SCID mice, Daudi xenograft, uterus; intravenous, 0.16 nmol per mouse, 1 h): 1.1 ± 0.2 %ID/g

CCCC[C@@H]1NC(=O)[C@@H](NC(=O)[C@H](CCC(=O)O)NC(=O)CNC(=O)CN2CCN(CC(=O)O)CCN(CC(=O)O)CCN(CC(=O)O)CC2)CCCCNC(=O)C[C@@H](C(N)=O)NC(=O)[C@H](C(C)C)NC(=O)[C@@H]2CCCN2C(=O)[C@H](CCCNC(=N)N)NC(=O)CNC(=O)[C@H](Cc2c[nH]c3ccccc23)NC(=O)[C@H](CCCNC(=N)N)NC(=O)[C@@H](Cc2ccccc2)NC(=O)[C@H](Cc2c[nH]cn2)NC(=O)[C@H](CCC(=O)O)NC1=O [gallium-67 labelled]
tissue uptake (C57 mice, B16/F1 flank melanoma, spleen; intravenous, 2 h, with: blocking peptide 10 µg): 0.07 ± 0.03 %ID/g

CCCC[C@H](NC(=O)CNC(=O)CNC(=O)CN1CCN(CC(=O)O)CCN(CC(=O)O)CC1)C(=O)N[C@H]1CC(=O)NCCCC[C@@H](C(N)=O)NC(=O)[C@H](Cc2c[nH]c3ccccc23)NC(=O)[C@H](CCCNC(=N)N)NC(=O)[C@@H](Cc2ccccc2)NC(=O)[C@H](Cc2c[nH]cn2)NC1=O [gallium-67 labelled]
tissue uptake (female C57 mice, B16/F1 melanoma, tumor; intravenous, 0.037 MBq, 4 h): 18.2 ± 4.89 %ID/g

O=C([O-])CN1CCN(CC(=O)[O-])CCN(CC(=O)[O-])CCN(CC(=O)[O-])CC1.[64Cu+2]
tissue uptake (nude athymic mice, healthy, femur; intravenous, 24 h, 64Cu label): 0.27 %ID/g
